Experimental data pooled from the literature.
Lines come from different studies, so protocols differ. Several values in a cell are separate wells, animals, samples, runs or records.
Matrix: plasma

species	route	dose	setting	clearance	Compound
male C57BL/6 mouse	intravenous	3 mg/kg	–	11.8 mL/min/kg	CCOc1c(C(C)(C)O)sc2cnc(Nc3ccc(N4CCC(N5CC6(COC6)C5)CC4)cc3OC)nc12
male CD-1 mouse	intravenous	10 mg/kg	single dose	94.7 mL/min/kg	O=C(OCc1cccc(O)c1O)c1ccc(O)c(CO)c1
male CD-1 mouse	intravenous	3 mg/kg	–	53 mL/min/kg	COc1ccc(Nc2nc(-c3ccccc3)cc(C3CCNCC3)n2)cc1OC
female CD-1 mouse	intravenous	5 mg/kg	–	3.92 mL/min/kg	COC1C=COC2(C)Oc3c(C)c(O)c4c(c3C2=O)C2=NC3(CCN(CC(C)C)CC3)NC2=C(NC(=O)C(C)=CC=CC(C)C(O)C(C)C(O)C(C)C(OC(=O)c2cncnc2)C1C)C4=O (centres unmarked)
CD-1 mouse	intravenous	10 mg/kg	–	25 mL/min/kg	COC(=O)c1ccc2c(c1)NC(=O)/C2=C(\Nc1ccc2c(c1)CCN2C(=O)CN1CCOCC1)c1ccccc1
mouse	intravenous	3 mg/kg	–	33.2 mL/min/kg	CCS(=O)(=O)c1ccccc1C(=O)N1CCN(c2nc3ccc(F)cc3s2)C[C@@H]1C
female CD-1 mouse	intravenous	5 mg/kg	–	3.67 mL/min/kg	COc1ccccc1NC(=O)OC1C(C)C(OC)C=COC2(C)Oc3c(C)c(O)c4c(c3C2=O)C2=NC3(CCN(CC(C)C)CC3)NC2=C(NC(=O)C(C)=CC=CC(C)C(O)C(C)C(O)C1C)C4=O (centres unmarked)
male Kunming mouse	intravenous	5 mg/kg	–	6.92 mL/min/kg	COc1cccc2c1C(=O)c1c(O)c3c(c(O)c1C2=O)C[C@@](O)(C(=O)CO)C[C@@H]3O[C@H]1C[C@H](N)[C@@H](O)[C@H](C)O1
mouse	intraperitoneal	16 mg/kg	single dose	54.4 mL/min/kg and 54 mL/min/kg	CCc1nc(N)nc(N)c1C#C[C@H](C)c1cc(-c2ccncc2)ccc1OC
mouse	intravenous	3 mg/kg	single dose	64 mL/min/kg	Nc1ccn(C[C@@H](CO)OCP(=O)(O)OCCCS(=O)(=O)CCCCCCCCCCCCCC2CCC2)c(=O)n1
female CD-1 mouse	intravenous	5 mg/kg	–	2.47 mL/min/kg	COC1C=COC2(C)Oc3c(C)c(O)c4c(c3C2=O)C2=NC3(CCN(CC(C)C)CC3)NC2=C(NC(=O)C(C)=CC=CC(C)C(O)C(C)C(O)C(C)C(OC(=O)Nc2cscn2)C1C)C4=O (centres unmarked)
mouse	intraperitoneal	2.5 mg/kg	single dose	0.14 L/h	C[N+]1(CC(=O)OC2CCCCCCCCCCC2)CCCCC1
CD-1 mouse	intravenous	1 mg/kg	–	62.7 mL/min/kg	C[C@H]1CN(C(=O)c2cn(-c3ccnc(N)n3)c3cc(C#CC4(O)CCCCC4)ccc23)CCN1
mouse	intravenous	3 mg/kg	–	20.6 mL/min/kg	NC(=O)c1c(F)ccc(OCc2nc3cc(Cl)cnc3s2)c1F

Excerpt of the above:
species	route	dose	setting	clearance	Compound
CD-1 mouse	intravenous	10 mg/kg	–	25 mL/min/kg	COC(=O)c1ccc2c(c1)NC(=O)/C2=C(\Nc1ccc2c(c1)CCN2C(=O)CN1CCOCC1)c1ccccc1
mouse	intravenous	3 mg/kg	–	33.2 mL/min/kg	CCS(=O)(=O)c1ccccc1C(=O)N1CCN(c2nc3ccc(F)cc3s2)C[C@@H]1C
